# Experimental data of several laboratories.
# Amino acid sequences for entries named in this document (tags omitted). Residues count along the entry.
# UniProt P45983, 1-384 isoform 3 C116S: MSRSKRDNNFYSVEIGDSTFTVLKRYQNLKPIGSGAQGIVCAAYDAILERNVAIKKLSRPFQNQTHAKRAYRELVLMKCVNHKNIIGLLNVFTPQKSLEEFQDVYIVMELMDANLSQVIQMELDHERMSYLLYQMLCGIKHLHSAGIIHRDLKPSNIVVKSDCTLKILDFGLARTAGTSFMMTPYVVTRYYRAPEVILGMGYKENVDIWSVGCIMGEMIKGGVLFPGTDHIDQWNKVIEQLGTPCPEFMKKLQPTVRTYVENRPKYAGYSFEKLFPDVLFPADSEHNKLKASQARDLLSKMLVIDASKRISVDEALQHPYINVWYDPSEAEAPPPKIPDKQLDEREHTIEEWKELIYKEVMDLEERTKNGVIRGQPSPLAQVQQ
# UniProt P45983, 1-384 isoform 3: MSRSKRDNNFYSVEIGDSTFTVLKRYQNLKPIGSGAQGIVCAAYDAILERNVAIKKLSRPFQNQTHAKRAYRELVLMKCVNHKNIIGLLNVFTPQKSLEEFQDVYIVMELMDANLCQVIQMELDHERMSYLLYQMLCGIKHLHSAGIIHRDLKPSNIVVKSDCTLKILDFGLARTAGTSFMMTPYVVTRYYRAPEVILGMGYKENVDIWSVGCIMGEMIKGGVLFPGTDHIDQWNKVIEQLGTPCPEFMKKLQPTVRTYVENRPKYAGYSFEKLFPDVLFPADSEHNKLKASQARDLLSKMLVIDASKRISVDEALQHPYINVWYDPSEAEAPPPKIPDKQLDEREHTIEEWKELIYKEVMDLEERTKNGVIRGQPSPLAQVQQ
# UniProt P05067, whole entry, looked up: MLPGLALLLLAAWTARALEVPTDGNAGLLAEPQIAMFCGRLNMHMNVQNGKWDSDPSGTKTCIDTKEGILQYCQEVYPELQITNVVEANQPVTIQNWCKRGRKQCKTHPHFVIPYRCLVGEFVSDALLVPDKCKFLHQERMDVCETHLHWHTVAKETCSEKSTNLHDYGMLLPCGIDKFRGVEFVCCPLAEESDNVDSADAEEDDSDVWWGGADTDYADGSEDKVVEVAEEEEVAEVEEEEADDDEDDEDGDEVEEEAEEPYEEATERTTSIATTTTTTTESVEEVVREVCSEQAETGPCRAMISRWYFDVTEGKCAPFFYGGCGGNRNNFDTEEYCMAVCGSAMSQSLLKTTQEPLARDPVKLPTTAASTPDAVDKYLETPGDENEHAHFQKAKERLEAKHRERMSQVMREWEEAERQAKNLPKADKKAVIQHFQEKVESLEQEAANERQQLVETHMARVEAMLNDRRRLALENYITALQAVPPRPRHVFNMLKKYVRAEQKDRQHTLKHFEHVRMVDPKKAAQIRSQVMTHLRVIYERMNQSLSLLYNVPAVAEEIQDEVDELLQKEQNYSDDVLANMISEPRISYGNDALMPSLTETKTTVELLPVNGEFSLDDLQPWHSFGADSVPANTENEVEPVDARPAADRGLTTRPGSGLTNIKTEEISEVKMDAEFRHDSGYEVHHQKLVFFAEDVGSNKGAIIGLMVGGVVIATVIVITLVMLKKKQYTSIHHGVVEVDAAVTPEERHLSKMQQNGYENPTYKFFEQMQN
# UniProt P05067, 672-713 limits assumed: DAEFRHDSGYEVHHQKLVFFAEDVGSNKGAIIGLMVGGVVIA
# UniProt Q14833, 33-912 limits assumed: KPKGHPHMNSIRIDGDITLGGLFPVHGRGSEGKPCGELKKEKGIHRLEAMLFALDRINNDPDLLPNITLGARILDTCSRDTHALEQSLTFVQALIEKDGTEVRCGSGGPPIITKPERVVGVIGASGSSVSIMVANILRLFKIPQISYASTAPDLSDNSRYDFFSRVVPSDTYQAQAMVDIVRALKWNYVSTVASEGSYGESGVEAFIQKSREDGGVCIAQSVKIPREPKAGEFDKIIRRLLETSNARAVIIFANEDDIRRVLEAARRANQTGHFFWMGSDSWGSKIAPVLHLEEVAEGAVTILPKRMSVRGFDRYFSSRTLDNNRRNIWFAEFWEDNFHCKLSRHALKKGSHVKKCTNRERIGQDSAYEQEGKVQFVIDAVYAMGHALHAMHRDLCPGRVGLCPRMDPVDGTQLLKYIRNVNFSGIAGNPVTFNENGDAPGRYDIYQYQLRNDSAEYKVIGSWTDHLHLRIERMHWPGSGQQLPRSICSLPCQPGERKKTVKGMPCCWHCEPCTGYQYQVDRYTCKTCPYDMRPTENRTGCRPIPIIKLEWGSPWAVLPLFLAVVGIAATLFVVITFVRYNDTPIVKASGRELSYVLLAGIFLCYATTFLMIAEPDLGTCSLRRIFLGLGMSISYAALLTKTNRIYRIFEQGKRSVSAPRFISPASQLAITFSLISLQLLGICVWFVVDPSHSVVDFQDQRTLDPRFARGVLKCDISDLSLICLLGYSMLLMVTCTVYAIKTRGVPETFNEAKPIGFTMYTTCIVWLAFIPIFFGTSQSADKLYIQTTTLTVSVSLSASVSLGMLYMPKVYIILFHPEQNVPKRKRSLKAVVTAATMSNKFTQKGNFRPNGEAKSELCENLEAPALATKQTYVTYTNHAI
# UniProt P46934, whole entry, looked up: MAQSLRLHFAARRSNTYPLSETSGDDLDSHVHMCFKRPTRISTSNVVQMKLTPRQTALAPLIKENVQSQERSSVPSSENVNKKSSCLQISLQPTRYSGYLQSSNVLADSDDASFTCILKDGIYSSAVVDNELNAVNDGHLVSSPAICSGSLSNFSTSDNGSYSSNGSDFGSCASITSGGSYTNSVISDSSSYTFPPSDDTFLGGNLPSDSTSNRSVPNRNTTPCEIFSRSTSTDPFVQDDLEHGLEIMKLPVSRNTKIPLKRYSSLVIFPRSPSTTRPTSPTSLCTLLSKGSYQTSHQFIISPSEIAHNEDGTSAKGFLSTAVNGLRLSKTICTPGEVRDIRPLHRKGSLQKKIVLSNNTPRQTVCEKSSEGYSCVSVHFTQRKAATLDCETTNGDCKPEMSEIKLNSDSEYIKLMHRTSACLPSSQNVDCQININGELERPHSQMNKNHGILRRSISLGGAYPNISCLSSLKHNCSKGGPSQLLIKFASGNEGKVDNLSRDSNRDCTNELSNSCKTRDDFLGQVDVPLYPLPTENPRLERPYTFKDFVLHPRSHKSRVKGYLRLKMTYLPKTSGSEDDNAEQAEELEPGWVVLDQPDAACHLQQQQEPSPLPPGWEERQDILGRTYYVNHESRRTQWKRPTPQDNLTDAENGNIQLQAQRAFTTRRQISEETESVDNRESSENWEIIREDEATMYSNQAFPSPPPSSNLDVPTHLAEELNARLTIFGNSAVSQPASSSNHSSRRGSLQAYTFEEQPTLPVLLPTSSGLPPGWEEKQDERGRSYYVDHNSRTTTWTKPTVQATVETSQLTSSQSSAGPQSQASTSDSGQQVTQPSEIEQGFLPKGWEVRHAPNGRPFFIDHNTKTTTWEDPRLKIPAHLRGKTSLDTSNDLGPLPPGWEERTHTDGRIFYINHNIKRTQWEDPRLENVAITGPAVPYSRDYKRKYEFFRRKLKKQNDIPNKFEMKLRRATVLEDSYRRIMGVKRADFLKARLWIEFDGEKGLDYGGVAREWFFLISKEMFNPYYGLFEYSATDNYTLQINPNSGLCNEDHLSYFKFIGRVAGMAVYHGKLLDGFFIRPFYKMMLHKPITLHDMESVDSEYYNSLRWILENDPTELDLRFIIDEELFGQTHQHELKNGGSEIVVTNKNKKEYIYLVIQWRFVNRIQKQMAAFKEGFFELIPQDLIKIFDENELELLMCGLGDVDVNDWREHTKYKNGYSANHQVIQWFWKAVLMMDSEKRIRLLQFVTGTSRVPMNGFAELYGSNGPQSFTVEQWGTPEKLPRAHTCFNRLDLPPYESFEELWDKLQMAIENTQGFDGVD
# UniProt P31421, 19-872 limits assumed: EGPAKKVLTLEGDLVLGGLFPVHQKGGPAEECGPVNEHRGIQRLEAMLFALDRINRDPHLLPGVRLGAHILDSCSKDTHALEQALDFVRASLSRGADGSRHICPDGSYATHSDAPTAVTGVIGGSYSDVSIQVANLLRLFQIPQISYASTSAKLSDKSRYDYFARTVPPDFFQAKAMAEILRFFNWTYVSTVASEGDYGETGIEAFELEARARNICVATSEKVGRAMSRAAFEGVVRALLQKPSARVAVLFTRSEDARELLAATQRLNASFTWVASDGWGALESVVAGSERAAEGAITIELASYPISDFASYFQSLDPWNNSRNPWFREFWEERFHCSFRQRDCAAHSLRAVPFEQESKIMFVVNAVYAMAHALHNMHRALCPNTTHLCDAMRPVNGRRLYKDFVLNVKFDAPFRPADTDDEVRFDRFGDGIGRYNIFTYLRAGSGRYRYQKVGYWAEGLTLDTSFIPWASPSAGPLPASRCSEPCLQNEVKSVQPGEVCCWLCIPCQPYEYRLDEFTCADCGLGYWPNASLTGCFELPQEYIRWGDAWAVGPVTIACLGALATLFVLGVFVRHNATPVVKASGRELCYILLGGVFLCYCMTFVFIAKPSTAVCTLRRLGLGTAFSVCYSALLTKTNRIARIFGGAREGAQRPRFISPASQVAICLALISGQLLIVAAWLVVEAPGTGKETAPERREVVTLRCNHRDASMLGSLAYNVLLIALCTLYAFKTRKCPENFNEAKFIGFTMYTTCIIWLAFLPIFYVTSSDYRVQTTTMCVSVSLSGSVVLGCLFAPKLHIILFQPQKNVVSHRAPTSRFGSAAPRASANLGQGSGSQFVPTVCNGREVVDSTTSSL
# UniProt Q9NTG7, whole entry: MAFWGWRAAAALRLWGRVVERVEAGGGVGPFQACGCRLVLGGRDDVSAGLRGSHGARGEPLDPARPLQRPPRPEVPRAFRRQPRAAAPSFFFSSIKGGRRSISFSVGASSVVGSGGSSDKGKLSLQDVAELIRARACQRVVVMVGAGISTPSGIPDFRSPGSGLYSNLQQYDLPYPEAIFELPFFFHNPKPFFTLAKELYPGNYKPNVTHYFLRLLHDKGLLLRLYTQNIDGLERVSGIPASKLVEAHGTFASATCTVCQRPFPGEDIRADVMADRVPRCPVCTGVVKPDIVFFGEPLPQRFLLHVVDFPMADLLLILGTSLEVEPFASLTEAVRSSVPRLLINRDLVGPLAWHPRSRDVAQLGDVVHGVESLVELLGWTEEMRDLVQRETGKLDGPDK
# UniProt P46154, whole entry: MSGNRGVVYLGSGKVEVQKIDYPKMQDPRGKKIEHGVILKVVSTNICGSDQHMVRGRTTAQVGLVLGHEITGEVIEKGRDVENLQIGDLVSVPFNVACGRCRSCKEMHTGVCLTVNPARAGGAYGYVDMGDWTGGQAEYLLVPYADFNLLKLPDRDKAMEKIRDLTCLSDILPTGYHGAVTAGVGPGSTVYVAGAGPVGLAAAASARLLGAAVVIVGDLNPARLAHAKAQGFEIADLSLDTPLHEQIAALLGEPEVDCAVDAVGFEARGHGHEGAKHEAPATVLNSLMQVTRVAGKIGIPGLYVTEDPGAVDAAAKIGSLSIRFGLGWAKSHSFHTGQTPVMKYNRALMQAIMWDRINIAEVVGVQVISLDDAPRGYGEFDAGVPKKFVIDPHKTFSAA
# UniProt Q99797, 36-713 limits assumed: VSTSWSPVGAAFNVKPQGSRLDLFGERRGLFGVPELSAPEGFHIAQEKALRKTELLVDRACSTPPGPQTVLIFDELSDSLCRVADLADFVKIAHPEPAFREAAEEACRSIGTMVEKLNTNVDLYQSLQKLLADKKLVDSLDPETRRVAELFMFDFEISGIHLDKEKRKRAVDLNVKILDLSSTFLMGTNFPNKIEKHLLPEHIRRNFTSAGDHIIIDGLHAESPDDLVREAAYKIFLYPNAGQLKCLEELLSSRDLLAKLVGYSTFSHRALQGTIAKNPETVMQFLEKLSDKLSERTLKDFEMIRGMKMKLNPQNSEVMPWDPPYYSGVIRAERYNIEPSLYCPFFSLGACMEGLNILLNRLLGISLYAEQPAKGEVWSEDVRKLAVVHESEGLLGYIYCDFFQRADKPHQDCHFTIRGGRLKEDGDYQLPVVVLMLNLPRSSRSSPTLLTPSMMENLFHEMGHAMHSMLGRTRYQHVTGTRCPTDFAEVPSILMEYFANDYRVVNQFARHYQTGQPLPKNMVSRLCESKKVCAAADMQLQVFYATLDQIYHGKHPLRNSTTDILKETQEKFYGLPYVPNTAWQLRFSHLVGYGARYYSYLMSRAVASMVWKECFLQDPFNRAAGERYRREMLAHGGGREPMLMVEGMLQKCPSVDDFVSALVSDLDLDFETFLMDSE
# UniProt P29466, whole entry, looked up: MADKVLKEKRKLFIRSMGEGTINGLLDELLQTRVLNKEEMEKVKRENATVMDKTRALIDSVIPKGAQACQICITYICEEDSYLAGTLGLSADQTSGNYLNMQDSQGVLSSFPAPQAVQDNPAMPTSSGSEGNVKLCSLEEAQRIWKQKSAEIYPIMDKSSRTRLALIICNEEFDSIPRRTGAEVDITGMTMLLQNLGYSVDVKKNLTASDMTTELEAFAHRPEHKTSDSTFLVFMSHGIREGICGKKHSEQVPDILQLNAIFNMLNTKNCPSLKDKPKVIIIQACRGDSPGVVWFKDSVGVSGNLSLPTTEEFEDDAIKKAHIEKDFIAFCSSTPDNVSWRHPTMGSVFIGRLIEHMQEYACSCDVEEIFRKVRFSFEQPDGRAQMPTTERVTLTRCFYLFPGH
# Lines come from different studies, so protocols differ. Values joined by “and” are separate records of one study, mostly repeats; a detail may differ. Numbers after ± are the reported error.
# MAPK8 C116S: Mitogen-activated protein kinase 8 (MAPK8, Homo sapiens, UniProt P45983, C116S)
# APP Aβ1-40: Amyloid-beta precursor protein, Aβ1-40 (APP, Homo sapiens, UniProt P05067)
# Lysophospholipase-like protein 1: Lysophospholipase-like protein 1 (Mus musculus, UniProt Q3UFF7)
# GRM4: Metabotropic glutamate receptor 4 (GRM4, Homo sapiens, UniProt Q14833)
# E3 ubiquitin-protein ligase NEDD4: E3 ubiquitin-protein ligase NEDD4 (Homo sapiens, UniProt P46934)
# RPA1 N-terminal domain: Replication protein A 70 kDa DNA-binding subunit, N-terminal domain (RPA1, Homo sapiens, UniProt P27694)
# Grm2: Metabotropic glutamate receptor 2 (Grm2, Rattus norvegicus, UniProt P31421)
SMILES,target,test,test system,conditions,scale,endpoint,value
COC(=O)[C@@]1(C)C=C(C(=O)OCc2cccc(C(=O)Nc3ccc(Nc4nccc(-c5cccnc5)n4)c(C)c3)c2)C(=O)CC1,MAPK8 C116S,surface plasmon resonance,,"100, 300, 1000 nM, 1:1 binding model",,koff,0.0621 s⁻¹
N#Cc1ccc2[nH]cc(/C=C/c3ccc([N+](=O)[O-])cc3F)c2c1,APP Aβ1-40,"Aβ40 aggregation, thioflavin T fluorescence",,25 µM,,inhibition,27%
O=C(OC(C(F)(F)F)C(F)(F)F)N1CC[C@H](OC(c2ccc(F)cc2)c2ccc(F)cc2)C1,"Fatty-acid amide hydrolase 1 (FAAH, Homo sapiens, UniProt O00519)","enzyme activity, inhibitor, fluorescence AAMCA substrate",,1 µM,,activity,inactive
Nc1nc(SCc2ccc(Cl)cc2)nn1S(=O)(=O)c1ccc2[nH]c(=O)[nH]c2c1,Lysophospholipase-like protein 1,"activator, gel-based ABPP FP-rhodamine",,,reference: DMSO,probe labelling,2.7 fold
CCN(CC)c1ccc2c(-c3ccccc3C(=O)N(C)CCCC(=O)N[C@@H](CC(C)C)C(=O)N[C@@H](CCCNC(=N)N)C(=O)N[C@@H](CCCNC(=N)N)C(=O)N[C@@H](C)C(=O)N[C@@H](CO)C(=O)N[C@@H](CC(C)C)C(=O)NCC(=O)O)c3ccc(=[N+](CC)CC)cc-3oc2c1,"cAMP-dependent protein kinase catalytic subunit alpha (PRKACA, Homo sapiens, UniProt P17612)","substrate, HPLC-Vis",,"10 µM, 1 h, pH 7.4, 10 mM MgCl2, together with: ATP 25 µM, PKACα 0.5 nM",,phosphorylation,33.6%
O=C(Nc1ccc(F)cc1)C12CC1/C(=N\O)c1cc(Cl)ccc1O2 (centres unmarked),GRM4,"positive allosteric modulator, calcium mobilization",CHO expressing Gqi5,"concentration not given, together with: glutamate EC20",reference: glutamate 1 mM,response,48.4 ± 1.8%
O=C1CCC(N2Cc3cc(-c4nc5ccccn5c4NC45CC6CC(CC(C6)C4)C5)ccc3C2=O)C(=O)N1 (centres unmarked),"WEE1/CRBN (Homo sapiens, UniProt P30291+Q96SW2, G322A)","degrader, HiBiT",MOLM-14,5 h,,Dmax,54%
CCOC(=O)/C=C/CNCCCN1c2ccccc2CCc2ccccc21,E3 ubiquitin-protein ligase NEDD4,"inhibitor, Ub-TR-FRET",,"33.33 µM, 1 h preincubation, HECT domain, together with: ATP 2 mM",higher = more ubiquitination,ubiquitination TR-FRET signal AUC,55400 a.u. and 44300 a.u. and 44000 a.u.
CC(=O)N[C@@H](CCC(N)=O)C(=O)N[C@H](C(=O)N[C@@H](C)C(=O)N[C@@H](CCCNC(=N)N)C(=O)N[C@@H](CCCCNC(=O)CCc1ccc(N=Nc2ccc(N(C)C)cc2)cc1)C(=O)N[C@@H](CO)C(=O)N[C@H](C(=O)NCC(=O)NCC(=O)NCCCNC(=S)Nc1ccc2c(c1)C(=O)OC21c2ccc(O)cc2Oc2cc(O)ccc21)[C@@H](C)O)[C@@H](C)O,"NAD-dependent protein deacetylase sirtuin-3, mitochondrial (SIRT3, Homo sapiens, UniProt Q9NTG7)","substrate, fluorescence kinetics",,"37 °C, 60 nM enzyme, together with: 500 µM NAD+",,kcat,0.0019 ± 2.7e-05 s⁻¹
CC(=O)NCCCC[C@H](NC(=O)CNC(=O)[C@H](CCCNC(=N)N)NC(C)=O)C(=O)Nc1ccc2c(C)cc(=O)oc2c1,"Histone deacetylase 8 (HDAC8, Homo sapiens, UniProt Q9BY41)","deacetylation, substrate",,"25 °C, together with: 150 nM enzyme",,kcat,0.011 ± 0.003 s⁻¹
CC(=O)Nc1ncc(CN2CC[C@H](Oc3cccc(F)n3)C[C@@H]2C)s1 [isotope labelled],"Protein O-GlcNAcase (Macaca mulatta, UniProt F6QIP2)",autoradiography,rhesus monkey cerebellum sections,"5 nM, radiolabelled compound",,binding,4.1 nCi/mg
Cc1ccc(C(=O)Nc2ccccc2C(=O)O)cc1S(=O)(=O)NC1CCCCCC1,RPA1 N-terminal domain,"binding, fluorescence polarisation competition",,together with: FITC-ATRIP probe,,ligand efficiency,0.19
CC(C)(Cn1cc(CNC(=O)Cc2ccccc2)nn1)c1c[nH]c2ccccc12,"Glucagon-like peptide 1 receptor (GLP1R, Homo sapiens, UniProt P43220)","cAMP accumulation, positive allosteric modulator, HTRF",,"0.6 µM, crude reaction product, together with: GLP-1(9-36) at EC20",reference: BETP,Emax,99.8%
CC(C)(C)OC(=O)CCC(C(=O)/C=C/c1ccc(O)c(OC(F)(F)F)c1)C(=O)/C=C/c1ccc(O)c(OC(F)(F)F)c1,"Amyloid-beta precursor protein (APP, Homo sapiens, UniProt P05067)","SDS-PAGE western blot, item: Aβ1-42 species 75-200 kDa",,"30 µM, 24 h, 37 °C, together with: Aβ 10 µM",reference: DMSO control,Aβ band density,1750 ± 927%
COc1ccc(NC(=O)CN2CCCN(S(=O)(=O)C(C)C)CC2)c(OC)c1,GRM4,"calcium mobilization, positive allosteric modulator",CHO cells with Gqi5,together with: glutamate,reference: PHCCC maximal response,maximal response,17.5 ± 0.7%
Cc1ncc(CN(C)c2ccc3c(c2)c(=O)c(C(N)=O)cn3-c2ccc(F)cc2)cn1,Grm2,"calcium mobilization, negative allosteric modulator",,"30 µM, together with: glutamate 100 µM",reference: glutamate maximum,response,1.86 ± 0.26%
Fc1ccc(-c2noc3ncnc(Nc4ccc5c(c4)OCO5)c23)cc1,"Cystic fibrosis transmembrane conductance regulator (CFTR, Homo sapiens, UniProt P13569, del508-508)",,FRT expressing ΔF508-CFTR,,reference: DMSO,iodide influx rate,90 µM/s
O=C(O)c1cc(C(=O)N2CCC[C@H]2C(=O)O)cc([C@H]2CCN[C@@H]2C(=O)O)c1,"Glutamate receptor ionotropic, kainate 2 (Grik2, Rattus norvegicus, UniProt P42260)",radioligand binding,Sf9 membranes,"10 µM, homomeric receptor, together with: [3H]kainate",,specific binding,86 ± 1%
CC(=O)N[C@@H](CC(C)C)C(=O)N[C@@H](CCCNC(=N)N)C(=O)N[C@@H](CO)C(=O)N[C@@H](CCCNC(=N)N)C(=O)Nc1ccc2c(C)cc(=O)oc2c1,"Mucosa-associated lymphoid tissue lymphoma translocation protein 1 (MALT1, Homo sapiens, UniProt Q9UDY8)","substrate, fluorogenic peptide hydrolysis",,"pH 7.5, enzyme 399 nM, citrate 0.9 M",,kcat/Km,1400 M⁻¹ s⁻¹
CCOC(=O)/C=C/CNCCCN1c2ccccc2CCc2ccc([N+](=O)[O-])cc21,E3 ubiquitin-protein ligase NEDD4,"inhibitor, Ub-TR-FRET",,"0.01524 µM, 1 h preincubation, HECT domain, together with: ATP 2 mM",higher = more ubiquitination,ubiquitination TR-FRET signal AUC,147000 a.u. and 149000 a.u.
COC(=O)/C(=C/c1c[nH]c2ccc(OC)cc12)c1ccc(F)cc1,APP Aβ1-40,"Aβ40 aggregation, thioflavin T fluorescence",,25 µM,,inhibition,0%
Nc1nc(CCCc2ccc(Cl)cc2)nn1S(=O)(=O)c1ccc2ccccc2c1,Lysophospholipase-like protein 1,"activator, gel-based ABPP FP-rhodamine",,,reference: DMSO,probe labelling,1 fold
Cc1ccc(C(=O)Nc2cc(F)ccc2C(=O)O)cc1S(=O)(=O)Nc1ccc(Br)cc1,RPA1 N-terminal domain,"binding, fluorescence polarisation competition",,together with: FITC-ATRIP probe,,ligand efficiency,0.2
CCOC(=O)/C=C/CNCCCCN1c2ccccc2CCc2ccc(Cl)cc21,"E3 ubiquitin-protein ligase HECW2 (HECW2, Homo sapiens, UniProt Q9P2P5)","inhibitor, Ub-TR-FRET",,"33.33 µM, 1 h preincubation, DMSO up to 2%, together with: ATP 2 mM",higher = more ubiquitination,ubiquitination TR-FRET signal AUC,421000 a.u.
COC(=O)[C@@]1(C)C=C(C(=O)Nc2cccc(C(=O)NC34CC(Nc5nccc(-c6cccnc6)n5)(C3)C4)c2)C(=O)CC1,"Mitogen-activated protein kinase 8 (MAPK8, Homo sapiens, UniProt P45983)","kinase activity, inhibitor",,"0.0007527 µM, unit not given, together with: 10 mM GSH",reference: DMSO,remaining activity,1.01
CC(=O)N1CCN(c2ccc(Nc3ncc4c(n3)N(C)C(=O)N(c3cc(NC(=O)c5ccc(CN6CCC(N(C)C)C6)c(C(F)(F)F)c5)ccc3C)C4)cn2)CC1 (centres unmarked),"FGFR4/Transcription factor ETV6 (Homo sapiens, UniProt P22455+P41212, V550E)",cell proliferation,Ba/F3 TEL-FGFR4 V550E,72 h,,GI50,24 nM
Cc1ncc(OCc2ccc3c(c2)c(=O)c(C(N)=O)cn3-c2ccc(F)cc2)cn1,Grm2,"calcium mobilization, negative allosteric modulator",,"30 µM, together with: glutamate 100 µM",reference: glutamate maximum,response,1.71 ± 0.2%
O=C(O)c1ccccc1Nc1c(C(=O)O)ccnc1C(=O)O,"fdhA (Pseudomonas putida, UniProt P46154)","inhibitor, spectrophotometric",,"200 µM, counterscreen",,remaining activity,73%
C[C@H](NC(=O)[C@H](CCCCN)NC(=O)CNC(=O)CNC(=O)[C@@H](NC(=O)[C@@H](NC(=O)[C@H](Cc1c[nH]c2ccccc12)NC(=O)c1ccccc1N)[C@@H](C)O)[C@@H](C)O)C(=O)N[C@@H](CCCCNc1ccc([N+](=O)[O-])cc1[N+](=O)[O-])C(N)=O,"Mitochondrial intermediate peptidase (MIPEP, Homo sapiens, UniProt Q99797)","substrate, FRET peptide hydrolysis",,,,kcat/Km,530 M⁻¹ s⁻¹
O=C(CN1C(=O)C=CC1=O)N1CCN(c2cc(N3CCCC3)nc(N3CCCC3)n2)CC1,"Caspase-1 (CASP1, Homo sapiens, UniProt P29466)",DTT reversibility,,"concentration not given, together with: 10 mM DTT",,recovered enzyme activity,50 to 65%
Cc1cc(NC(=O)c2cccc(NC(=O)C3=CC(C)(C)CC3=O)c2)ccc1Nc1nccc(-c2cccnc2)n1,MAPK8 C116S,surface plasmon resonance,,"100, 300, 1000 nM, 1:1 binding model",,koff,0.0412 s⁻¹
O=C(O)c1ccc(NC(=O)C(NS(=O)(=O)c2cccs2)c2ccccc2)cc1Cl (centres unmarked),"Uracil nucleotide/cysteinyl leukotriene receptor, long isoform (GPR17, Homo sapiens, UniProt Q13304)","calcium mobilization, antagonist",1321N1 stably expressing GPR17,fitted at highest concentration,higher = stronger inhibition,Emax,109 ± 4.46%
